Results of several laboratories.
Each line is one published result; not all experiments were run side by side. Values joined by “and” are separate records of one study, mostly repeats; a detail may differ. ± marks the error that the study gave. ≈ marks a conversion by molar mass, not a printed value.
Sequence of UniProt Q16774 (whole entry, looked up): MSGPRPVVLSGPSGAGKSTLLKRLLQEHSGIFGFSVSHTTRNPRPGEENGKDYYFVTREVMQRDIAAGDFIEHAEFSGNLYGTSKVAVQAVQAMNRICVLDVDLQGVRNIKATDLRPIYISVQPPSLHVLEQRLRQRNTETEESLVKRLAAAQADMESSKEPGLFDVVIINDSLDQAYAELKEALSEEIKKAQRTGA
Sequence of UniProt P51575 (whole entry, unmodified, looked up): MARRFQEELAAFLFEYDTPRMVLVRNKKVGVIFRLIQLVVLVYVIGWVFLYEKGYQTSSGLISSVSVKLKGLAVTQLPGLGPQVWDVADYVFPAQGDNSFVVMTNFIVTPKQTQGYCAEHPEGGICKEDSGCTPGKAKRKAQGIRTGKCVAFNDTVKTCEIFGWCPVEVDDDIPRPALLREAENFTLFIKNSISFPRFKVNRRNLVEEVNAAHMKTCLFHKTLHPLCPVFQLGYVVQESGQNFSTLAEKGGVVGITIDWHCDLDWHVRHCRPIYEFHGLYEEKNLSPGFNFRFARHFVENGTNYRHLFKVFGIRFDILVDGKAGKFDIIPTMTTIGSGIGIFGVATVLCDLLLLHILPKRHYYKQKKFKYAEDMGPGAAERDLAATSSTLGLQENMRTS

Compound | target or system | assay | test system | conditions | how to read | quantity | value
CCCC1CCC(c2ccc(OCC)c(F)c2F)CC1 (centres unmarked) |  |  | rat, placenta | 10 ng/mL in perfusate, low dose, mixture of 21 LCMs |  | median placental accumulation | 2.31 ng/g
CNC(=O)c1ccc(-c2cnc3ncc(Cc4ccc5ncccc5c4)n3n2)cc1F |  | measured: Fatigue, all grades | cancer patients | oral, 600 mg twice daily, expansion cohort, any causality |  | patients with adverse event | 34%
CCC(C)n1ncn(-c2ccc(N3CCN(c4ccc(OCC5COC(Cn6cncn6)(c6ccc(Cl)cc6Cl)O5)cc4)CC3)cc2)c1=O (centres unmarked) |  |  | healthy human volunteers | oral, 200 mg, event Dizziness, continued dosing |  | adverse events | 0%
CN1C(=O)[C@@H](NC(=O)c2nnc(Cc3ccccc3)[nH]2)COc2cccnc21 |  | phase I single ascending dose | human, male and female | oral, 800 mg, fasted |  | medical device site reaction incidence | 0%
COc1cc2[nH]c(C)c(-c3ccc(C(F)(F)F)cc3)c(=O)c2cc1Cl |  |  |  | pH 7.4 |  | kinetic solubility | < 2 µM
O=C(O)CC[C@H](NC(=O)N[C@@H](CCCCNC(=O)[C@H](Cc1ccc2ccccc2c1)NC(=O)CCCCCNC(=O)CN1CCN(CC(=O)O)CCN(CC(=O)O)CCN(CC(=O)O)CC1)C(=O)O)C(=O)O [gallium-68 labelled] |  | PET/CT | mouse, 22Rv1 xenograft, tumour | intravenous, 3.7 MBq, 8 h |  | SUVmean | 0.15 ± 0.004 SUV
O=C(OC(C(F)(F)F)C(F)(F)F)N1CCN(Cc2cccc(Oc3ccccc3)c2)CC1 |  | PET blocking study | rhesus monkey, brain FCX | 0.01 mg/kg, compound pretreatment, added: [18F]T-401 tracer |  | k2 | 0.044 min⁻¹
CN(CCC#N)C1CCN(C(=O)Cn2cc(NC(=O)c3cnn4cccnc34)c(-c3cc(Cl)ccc3OC(F)F)n2)CC1 |  | gamma scintigraphy | human | inhalation, 1 mg single dose | baseline: emitted dose | mouthwash deposition | 10.8%
CCNCCCNC/C=C\CNCCCNCC |  | LC-MS/MS | human cancer patients, plasma | intravenous infusion 60 min, 150 mg, median, cycle 1 |  | AUMC(0-inf) | 731 ng·h²/mL
Cc1cc(-c2nccc3c2ccn3CC(=O)Nc2ccc(-c3cnccn3)cn2)ccn1 |  |  | human | SAD part, single 20 mg dose |  | subjects with any grade 2 TEAE | 0%
Cc1cccc(CNC(=O)c2cn(CCNC(=O)c3ccccc3Sc3c([N+](=O)[O-])ncn3C)c3cc4c(cc3c2=O)OC(F)(F)O4)n1 |  |  | Sprague-Dawley rat, male, whole blood | intramuscular, 30 mg/kg of parent drug |  | Cmax | 29.4 ± 14.7 ng/mL
CNc1ccc(-c2nc3ccc(O)cc3s2)cc1 [carbon-11 labelled] |  | ex vivo biodistribution | B6SJL mouse, normal, eyes | intravenous, 30 min |  | SUV | 1.89 ± 1.53
N#Cc1ccc2c(c1)[C@H]1CCCN(C(=O)c3ccc4[nH]cnc4c3)[C@H]1C2 |  |  | human females | 80 mg, end of trial |  | total testosterone | 1.4 nmol/L
O=C(Nc1nc2cccc(-c3ccc(CN4CCS(=O)(=O)CC4)cc3)n2n1)C1CC1 |  | measured: hypotension | human rheumatoid arthritis patients | oral, 200 mg once daily, 4 weeks, regardless of relatedness |  | treatment-emergent adverse events | 0%
Nc1ncnc2c1ncn2[C@@H]1O[C@H](COP(=O)(O)CP(=O)(O)OP(=O)(O)O)[C@@H](O)[C@H]1O | P2X purinoceptor 1 (P2RX1, Homo sapiens, UniProt P51575, M214A) | saturation binding | HEK293 | 13 nM |  | specific binding | 150 CCPM and 97.5 CCPM and 254 CCPM
CCOc1c([C@H](C)n2nc(C)c3c(N)ncnc32)cc(Cl)c(F)c1[C@@H]1CNC(=O)C1 |  | measured: QRS >100 to ≤110 ms | previously treated B-cell malignancy | oral, 5 mg once daily, baseline below thresholds |  | ECG observations | 0%
CCn1cc(-c2cc(Cn3ccoc3=N)cc3c2CCN([C@@H](C)c2cc(OC)ccn2)C3=O)c(C(F)(F)F)n1 | Hs 294T | cell growth, inhibitor |  | 120 h |  | EC50 | 38.3 nM
Cn1cc(-c2ccc(-c3cncc(Cl)c3N3CCC4(CCNC4=O)CC3)cc2)cn1 | COLO 205 | gene expression, microarray, measured: DRAM1 mRNA |  | concentration not given, 6 h | baseline: untreated cells | log2 fold change | 3.04
Cc1cc(C(=O)NC(C)(C)COc2cccc3c2C(N)=NS(=O)(=O)N3)cc(C)n1 | human peripheral blood lymphocytes | CBPI, concurrent micronucleus test |  | 100 µg/mL, 4 h | baseline: vehicle control | cytotoxicity | 2%
Cc1ccc(Sc2ccccc2N2CCNCC2)c(C)c1 |  | TEAE blood in urine | healthy adult men | oral, 40 mg single dose, 10 days |  | adverse event incidence | 0%
CC1(CNC(=O)c2ccc(-c3ccc(Br)cc3)cc2)NC(=O)NC1=O (centres unmarked) |  |  | aqueous buffer | pH 7.4 |  | thermodynamic solubility | < 7.14 µM
CNCc1ccc(-c2[nH]c3cc(F)cc4c3c2CCNC4=O)cc1 |  |  | human patients | oral, 840 mg twice daily, all grades |  | nausea incidence | 100%
O=C(COc1ccc(Cl)cc1)NC12CC(c3nnc([C@H]4C[C@@H](OC(F)(F)F)C4)o3)(C1)C2 |  | muscle spasms | healthy human, both sexes | oral, dose not given, 14 days, multiple ascending dose, all doses |  | treatment-emergent adverse events | 5.9%
CC(C)(C(=O)N1CCOc2c(C#N)cncc2C1)C(F)F |  | measured: Dermatitis | human | oral, 20 mg twice daily, 14 days, multiple ascending dose |  | subjects with adverse event | 0%
Cc1ccc(C(=O)N(CCCN)C(c2nc3snc(C)c3c(=O)n2Cc2ccccc2)C(C)C)cc1 (centres unmarked) |  |  | human patients | intravenous, 4 mg/day |  | grade ≥3 fatigue patients | 0%

Compound | target or system | assay | test system | conditions | how to read | quantity | value
CO[C@]1(C(=O)N[C@@H](C)c2ccc(-n3cc(F)cn3)nc2)CC[C@H](c2nc(C)cc(Nc3cc(C)[nH]n3)n2)CC1 |  |  | humans, feces | oral, dose not given | baseline: dose | excreted radioactivity | 72.5%
CN(CCC(=O)O)C(=O)c1ccc2c(c1)CC[C@@H]1[C@@H]2CC[C@]2(C)C(c3cncc(F)c3)=CC[C@@H]12 |  |  | premenopausal women, endometriosis pain, serum | 60 mg twice daily, visit 4, median | baseline: baseline | total bilirubin change | 0.6 mg/dL
CCN1/C(=C/C(C)=O)Sc2ccc(F)cc21 |  |  | cynomolgus monkey | oral, 100 mg/kg, 24 h post-dose |  | diastolic blood pressure | 75 ± 6 mmHg
CCN1CCN(Cc2ccc(NC(=O)c3ccc(C)c(NC(=O)c4cncc(-c5cccs5)c4)c3)cc2C(F)(F)F)CC1 |  | LC-MS/MS | C57BL/6 mouse, plasma | intraperitoneal, 20 mg/kg single dose, 4 h |  | plasma concentration | 204 ng/mL and 198 ng/mL and 206 ng/mL
C[C@@H](Oc1ccc(S(C)(=O)=O)cc1C(=O)N1C[C@@H]2C[C@]2(c2cc(C(F)(F)F)on2)C1)C(F)(F)F |  |  | elderly humans, plasma | oral, 25 mg once daily, single dose, geometric mean |  | Vz/F | 346 L
C=CC(=O)NC1CCN(c2ncc3ncnc(Nc4ccc(Oc5ccc6c(c5)ncn6C)c(C)c4)c3n2)CC1 |  | measured: body temperature increased | human male | oral, dose not given, CTCAE on-treatment AEs |  | adverse events incidence | 0%
c1ccc(-c2nc(N3CCCC(c4ccccn4)C3)c3ccccc3n2)nc1 (centres unmarked) |  |  | Japanese Pharmacopoeia disintegration test solution 2 | pH 6.8 |  | kinetic solubility | 81 µg/mL
CC(C)C[C@H](NC(=O)C[C@H](O)[C@H](CC(C)C)NC(=O)[C@H](Cc1c[nH]cn1)NC(=O)CNC(=O)[C@@H](NC(=O)[C@H](C)NC(=O)[C@H](Cc1c[nH]c2ccccc12)NC(=O)[C@H](CCC(N)=O)NC(=O)[C@@H](Cc1ccccc1)NC(=O)COCCOCCNC(=O)CCC(C(=O)O)N1CCN(CC(=O)O)CCN(CC(=O)O)CCN(CC(=O)O)CC1)C(C)C)C(N)=O (some centres unmarked) [lutetium-177 labelled] |  |  | BALB/c nu/nu mice, small intestine | 750 pmol, 1 h, added: PA 300 µg |  | tissue uptake | 0.5 ± 0.2 %ID/g
Cc1nc2cccc(OCC(C)(C)C(=O)NC(C)C)c2c(N)c1C(=O)O |  |  | Sprague-Dawley rat, female, plasma | oral, 10 mg/kg, day 7 over day 1, 7-day repeated dosing | baseline: day 7 over day 1 | AUClast ratio | 1.2 ± 0.55
O=C(O)c1cccc(C(=O)O)c1 |  |  | betaine/ethylene glycol DES-water | DES mass fraction 0.70 |  | apparent dissolution enthalpy | 3.63 kcal/mol
COc1cnc2cccc(N3CCc4c(cc(Cn5ccnc5C)cc4-c4cn(C)nc4C(F)(F)F)C3=O)c2c1 | JeKo-1 | cell growth, inhibitor |  | 120 h |  | EC50 | 1170 nM
Cc1ccc(NC(=O)c2ccc(CN3CCN(C)CC3)cc2)cc1Nc1nccc(-c2cncc(-c3oncc3C)c2)n1 |  |  | C57BL/6 mice, male, plasma and brain | oral, 100 mg/kg |  | t1/2 | 2 to 4 h
C[C@@H](O)[C@H](NC(=O)c1ccc(C#Cc2ccccc2)cc1)C(=O)NCC1(C)NC(=O)NC1=O (some centres unmarked) |  |  | aqueous buffer | pH 7.4 |  | thermodynamic solubility | 513 µM (≈ 230 µg/mL)
COc1ccc2c(c1)CN(C(=O)CCN1CCC(Cc3ccccc3)CC1)CC[S@@+]2[O-] |  | telemetry | conscious male beagle dogs | intravenous, 4 mg/kg, 0.5 h |  | QTc interval | 255 ± 12 ms
Cn1cc(Nc2nc(N)nc(-c3cccc(-n4ccc5cc(C6CC6)cc(F)c5c4=O)c3CO)n2)cn1 |  |  | healthy humans, fed | oral tablet, 300 mg twice daily (multiple dose), 14 (unit not given) | baseline: subjects | nausea incidence | 1%
Cc1cc(NC2CCN(C(=O)OC3CCN(C(=O)/C=C/CN(C)C)C3)CC2)n2ncc(C(C)C)c2n1 (centres unmarked) |  | CTCAE v4.0, measured: Nausea | patients with advanced solid tumours | oral, dose not given, all schedules, grade 3 or higher |  | patients with TEAE | 2%
COc1cccc(OC)c1-c1cc(C(=O)NC2(C(=O)O)C3CC4CC(C3)CC2C4)nn1-c1ccc(C(=O)N(C)CCCN(C)CCCN(C)C(=O)CN2CCN(CC(=O)[O-])CCN(CC(=O)[O-])CCN(CC(=O)[O-])CC2)cc1C(C)C.[177Lu+3] (centres unmarked) |  |  | mouse, HT-29 xenograft | 168 h post injection, biodistribution | baseline: tumour over liver uptake | tumour-to-liver ratio | 11.3
C[C@H]1CN(C(=O)CC#N)[C@]12CCN(c1ncnc3[nH]ccc13)C2 |  |  | healthy adults, plasma | oral, 3 mg single dose |  | half-life, mean | 2.3 h
Cc1cc(Nc2ccc(S(F)(F)(F)(F)F)cc2)n2nc(C(C)(F)F)nc2n1 | Plasmodium vivax | 12-lead Holter ECG | human malaria patients | oral, 600 mg, QTc above 500 ms |  | patients with QTcF above threshold | 0%
Cc1cc(Nc2cc3ncccc3c(N[C@@H]3C[C@H]4CC[C@@H](C3)N4CCC#N)n2)n[nH]1 |  |  | human, plasma | 270 mg, day 1, geometric mean |  | AUC(0-4) | 21.2 ng·h/mL
C=CCN1CC(=O)N2[C@@H](Cc3ccc(O)cc3F)C(=O)N(Cc3cccc(N4CC(N5CCN(CC)CC5)C4)n3)C[C@@H]2N1C(=O)NCc1ccccc1 |  |  | advanced solid tumour patients | oral, 160 mg twice daily, grade ≥3, dose-escalation |  | treatment-related vomiting | 0%
CCC[C@H]1CC[C@H](c2ccc(C#N)cc2)CC1 |  |  | Sprague-Dawley rat, female, fetus | 5000 ng/mL in perfusate, 50 (unit not given), high dose, mixture of 21 LCMs |  | median fetal accumulation | 4.87 ng/g
Nc1nc2c(ncn2[C@@H]2O[C@H](COP(=O)(O)O)[C@@H](O)[C@H]2O)c(=O)[nH]1 | GUK1 (Homo sapiens, UniProt Q16774) | enzyme activity, NADH-coupled |  | 250 µM, added: NaCl 50 mM |  | reaction velocity | 0.0709 µM/s and 0.0814 µM/s and 0.0889 µM/s
Cn1cc(Nc2nccc(-c3ccc4c(c3)CN(C3COC3)CC[C@H]4NC(=O)c3cn(C(C)(C)C)nn3)n2)cn1 |  |  | human, whole blood | 150 mg twice daily, day 14 | baseline: pre-dose baseline | class-switched memory B cell change | 50.5%
N#CCNC(=O)c1ccc(-c2ccnc(Nc3ccc(N4CCOCC4=O)cc3)n2)cc1 |  |  | healthy volunteers, plasma | dose not given, added: rifampin multiple-dose | baseline: with rifampin over alone | AUCinf geometric mean ratio | 96%

Excerpt of the above:
Compound | target or system | assay | test system | conditions | how to read | quantity | value
CCN1/C(=C/C(C)=O)Sc2ccc(F)cc21 |  |  | cynomolgus monkey | oral, 100 mg/kg, 24 h post-dose |  | diastolic blood pressure | 75 ± 6 mmHg
CCN1CCN(Cc2ccc(NC(=O)c3ccc(C)c(NC(=O)c4cncc(-c5cccs5)c4)c3)cc2C(F)(F)F)CC1 |  | LC-MS/MS | C57BL/6 mouse, plasma | intraperitoneal, 20 mg/kg single dose, 4 h |  | plasma concentration | 204 ng/mL and 198 ng/mL and 206 ng/mL
C[C@@H](Oc1ccc(S(C)(=O)=O)cc1C(=O)N1C[C@@H]2C[C@]2(c2cc(C(F)(F)F)on2)C1)C(F)(F)F |  |  | elderly humans, plasma | oral, 25 mg once daily, single dose, geometric mean |  | Vz/F | 346 L
C=CC(=O)NC1CCN(c2ncc3ncnc(Nc4ccc(Oc5ccc6c(c5)ncn6C)c(C)c4)c3n2)CC1 |  | measured: body temperature increased | human male | oral, dose not given, CTCAE on-treatment AEs |  | adverse events incidence | 0%
